Results gathered from unrelated publications.
A part holds a random share of what one study measured. Substitutions count along the parent as printed.

Set 1 — method: protein binding microarray; molecule type: double-stranded DNA, one strand shown; sample: in vitro; tested at: not given; reference: not given; reading: higher = stronger binding
Target: Histone acetyltransferase KAT6A, winged helix 2, GST fusion (KAT6A, Homo sapiens, UniProt Q92794, residues 85-181)
Notes: 8-mer, flanks averaged, mean of 2 arrays, mostly near background
Target sequence (chain): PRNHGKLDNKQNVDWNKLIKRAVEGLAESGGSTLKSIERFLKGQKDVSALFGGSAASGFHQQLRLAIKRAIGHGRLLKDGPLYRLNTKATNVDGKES
| Strand | E-score |
| --- | --- |
| GAACGCAA | 0.133 |
| ATCCGCGA | 0.0639 |
| AATTCGCT | 0.0665 |
| AGGTGTAG | -0.191 |
| CTAAACAC | 0.00303 |
| CCTGAGAA | -0.00496 |
| AATTTCGT | -0.0537 |
| CTTGACCC | 0.0153 |
| AATACGAA | 0.0515 |
| AGTACCGG | -0.0881 |
| AGCGGGAG | -0.0615 |
| CAGCGTTC | -0.0836 |
| ACGAGACC | -0.159 |
| AGCCTTAG | -0.13 |
| CAAGTGCC | -0.0074 |
| ATCCTTAG | -0.141 |
| CCAATGAG | -0.0953 |

Set 2 — target: FOSB, bZIP domain (human); method: DHFR protein complementation; sample: yeast; reference: wild-type JUN-FOS pair; reading: higher = stronger binding
Notes: single substitutions, most at no-binding floor
Parent: JUN, bZIP domain (human); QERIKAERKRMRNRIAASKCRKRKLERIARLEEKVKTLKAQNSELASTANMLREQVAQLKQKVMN; partner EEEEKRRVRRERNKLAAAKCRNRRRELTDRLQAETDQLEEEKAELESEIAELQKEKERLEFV
| Variant | binding fitness [natural log] |
| --- | --- |
| A49L | -0.07 |
| Q41A | -0.163 |
| E54D | -0.255 |
| A40Y | -0.314 |
| E32V | -0.137 |
| L31T | -0.779 |
| E33D | -0.148 |
| V35W | -0.411 |
| T37N | -0.0712 |
| S43A | 0.0847 |
| A40M | -0.189 |
| E33N | -0.27 |
| L31C | -0.705 |
| E33T | -0.293 |
| E32M | -0.244 |
| Q55Y | -0.202 |
| Q41I | -0.0227 |
| A49E | -1.13 |
| R53K | -0.142 |

Set 3 — target: UBE2M UBC core domain (UniProt P61081); method: yeast two-hybrid; sample: yeast; notes: mostly zero background; reference: not given; reading: higher = stronger interaction
B1: TRIM10 RING domain (UniProt Q9UDY6); chain SVTSLADEVNCPICQGTLREPVTIDCGHNFCRACLTRYCEIPGPDLEESPTCPLCKEPFRPGSFRP
B2: RNF14 RING domain (UniProt Q9UBS8); chain IKCFNSKLFLCSICFCEKLGSECMYFLECRHVYCKACLKDYFEIQIRDGQVQCLNCPEPKCPSVATPGQVK
B3: TRIM38 RING domain (UniProt O00635); chain STKKMMEEATCSICLSLMTNPVSINCGHSYCHLCITDFFKNPSQKQLRQETFCCPQCRAPFHMDSLRP
B4: RNF112 RING domain (UniProt Q9ULX5); chain QPMAPRELPTCSICLERLRDPISLDCGHDFCIRCFSTHRLPGCEPPCCPECRKICKQKRGLR
B5: TRIM55 RING domain (UniProt Q9BYV6); chain TMDNLEKQLICPICLEMFTKPVVILPCQHNLCRKCASDIFQASNPYLPTRGGTTMASGGRFRCPSCRHEVVLDRHG
B6: PHF7 RING domain (UniProt Q9BWX1); chain IQHGHVGEESCILCCEDLSQQSVENIQSPCCSQAIYHRKCIQKYAHTSAKHFFKCPQCNNRKEFPQEML
B7: RNF175 RING domain (UniProt Q8N4F7); chain LPTRSLSDNICAVCGQKIIVELDEEGLIENTYQLSCNHVFHEFCIRGWCIVGKKQTCPYCKEKVDLKRMIS
B8: RNF4 RING domain (UniProt P78317); chain TGLRPSGTVSCPICMDGYSEIVQNGRLIVSTECGHVFCSQCLRDSLKNANTCPTCRKKINHKRYHP
Residues (chain): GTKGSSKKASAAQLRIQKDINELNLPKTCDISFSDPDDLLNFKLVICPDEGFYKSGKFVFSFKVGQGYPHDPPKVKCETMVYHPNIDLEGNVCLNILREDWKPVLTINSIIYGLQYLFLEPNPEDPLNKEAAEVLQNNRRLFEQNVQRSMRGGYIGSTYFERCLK
| Sequence | lacZ reporter activity |
| --- | --- |
| B1 (TRIM10 RING domain) | 0 |
| B2 (RNF14 RING domain) | 0 |
| B3 (TRIM38 RING domain) | 0 |
| B4 (RNF112 RING domain) | 0 |
| QLQDEEDDSLCRICMDAVIDCVLLECGHMVTCTKCGKRMSECPICRQYVVRAVHVF (RNF34 RING domain (UniProt Q969K3)) | 0 |
| B5 (TRIM55 RING domain) | 0 |
| ISNDSETLEECMVCSDMKRDTLFGPCGHIATCSLCSPRVKKCLICKEQVQSRTKIE (MIB1 RING domain (UniProt Q86YT6)) | 0 |
| LKQVSIRENCCSLCCDEVADTQLKPCGHSDLCMDCALQLETCPLCRKEIVSRIRQI (RSPRY1 RING domain (UniProt Q96DX4)) | 0 |
| B6 (PHF7 RING domain) | 0 |
| B7 (RNF175 RING domain) | 0 |
| B8 (RNF4 RING domain) | 0 |
| SYEDKSNDFVCPICFDMIEEAYMTKCGHSFCYKCIHQSLEDNNRCPKCNYVVDNIDHLY (COP1 RING domain (UniProt Q8NHY2)) | 0 |

Set 4 — method: competition protein-binding microarray; molecule type: double-stranded DNA, one strand shown; sample: in vitro; tested at: 2 µM; together with: Cbf1 competitor, 0.05 µM; reading: higher = stronger binding
Target: Phosphate system positive regulatory protein PHO4, full length, GST-tagged (PHO4, Saccharomyces cerevisiae, UniProt P07270, residues 1-312)
Notes: whole 60-bp probe, lowest competitor level
Construct (chain): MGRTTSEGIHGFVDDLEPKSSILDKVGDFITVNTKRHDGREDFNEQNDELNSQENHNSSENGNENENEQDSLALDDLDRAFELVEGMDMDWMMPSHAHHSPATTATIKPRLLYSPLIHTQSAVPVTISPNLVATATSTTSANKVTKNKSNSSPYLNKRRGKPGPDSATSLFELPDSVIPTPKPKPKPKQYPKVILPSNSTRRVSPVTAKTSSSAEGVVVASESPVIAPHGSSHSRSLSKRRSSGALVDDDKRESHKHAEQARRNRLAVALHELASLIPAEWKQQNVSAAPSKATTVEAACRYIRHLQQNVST
| Strand | fluorescence intensity |
| --- | --- |
| CCTGGCACTCGCTATTTCGTGACGGCGTTCCAGGACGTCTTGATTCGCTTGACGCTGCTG | 4720 a.u. |
| CGGGGTTAAGTTTGCGCGGTGGGTGGCTTGCAGCAGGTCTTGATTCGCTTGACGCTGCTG | 5090 a.u. |
| TAGAACCAGTATCCACACGTGGTGACAAAAACTCGAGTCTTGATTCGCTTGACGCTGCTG | 16400 a.u. |
| CTATGCAAGTTATGCCAGGTGACAGTGTTGAAATGGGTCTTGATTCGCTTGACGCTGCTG | 6370 a.u. |
| AAATTACTAAGTTGCCTGGTGGGTGACGCCGTATGAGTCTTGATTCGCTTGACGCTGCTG | 4140 a.u. |
| GTCAAGCTGAAATCTCACGTGGGTACAGACGGGGAAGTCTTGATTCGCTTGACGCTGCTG | 15100 a.u. |
| CCAATGTACTTAAAGCACGATATCGACGCTCCTAAGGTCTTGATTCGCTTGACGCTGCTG | 7790 a.u. |
| TCGGTGATGGTATTGCTCGTGTTTTTGGTTTGAACAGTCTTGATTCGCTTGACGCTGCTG | 8370 a.u. |
| GATCAGTTTGAAAGAAACGTGAAAATTATTTTTTTCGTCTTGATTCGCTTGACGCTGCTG | 8210 a.u. |
| CGGGAGTGTTTTTTTTCCGTGCGGATTTTCTTAGCTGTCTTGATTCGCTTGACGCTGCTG | 4160 a.u. |
| TATAGAAAATTTCTGAGTGAAGGGTGGTCTATACACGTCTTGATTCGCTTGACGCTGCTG | 5580 a.u. |
| TTATCGTTGTGTAACCACGTAGAGAATCCCTTATAAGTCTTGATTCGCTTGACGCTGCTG | 5140 a.u. |
| GAGCTCAAGGCGAGTCACGATGCAGAACTGGAACTTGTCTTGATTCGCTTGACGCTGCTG | 6540 a.u. |
| GATAGTAACTCGAGTCACGTGCTTTCTAACCATCAAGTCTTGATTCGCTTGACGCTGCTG | 14800 a.u. |
| AGCGCCAATTGGTTACTCGTGAAGCTCAGATTAAAGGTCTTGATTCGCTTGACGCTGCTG | 4490 a.u. |
| TGCTGCGGACAGTTCTCCGTGACGGGATCGCGCAATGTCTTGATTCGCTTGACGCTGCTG | 3500 a.u. |
| TTCAATGCCAACAATAGCGTGCTTTCTTGTGAGTTTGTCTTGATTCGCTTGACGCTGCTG | 7750 a.u. |
| GGCCCCTAGATCCTGCTCGTGAACGATGGACTCGGCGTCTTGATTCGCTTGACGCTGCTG | 4120 a.u. |
| CTTTCCCGATCTTGAATTGTGGGTGTAGCACATTTGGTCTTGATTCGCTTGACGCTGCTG | 4930 a.u. |
| GTCTTGTCTCATTGACGTGTGGGTGTCCCCACTTCAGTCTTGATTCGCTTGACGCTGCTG | 6380 a.u. |
| CGGGGTTAAGTTTGAGCCGTGGGTGGCTTGCAGCAGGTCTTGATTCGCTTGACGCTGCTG | 5790 a.u. |
| AAGCAAGGTGATGTTCAGCTGACCGGCAGCATCGGCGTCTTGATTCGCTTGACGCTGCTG | 2840 a.u. |
| ACCTTCTTTGGCGTTGTTGTGACGGAGACTTCCTGTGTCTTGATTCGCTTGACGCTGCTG | 3770 a.u. |

Set 5 — target: CCND2, cyclin fold, Cln2 fusion (human); method: yeast growth competition, sequencing; sample: yeast; notes: strong parent motif; reference: not given; reading: higher = stronger binding
Parent: E2F1 docking peptide (human); PPVKRRLDFETDH; partner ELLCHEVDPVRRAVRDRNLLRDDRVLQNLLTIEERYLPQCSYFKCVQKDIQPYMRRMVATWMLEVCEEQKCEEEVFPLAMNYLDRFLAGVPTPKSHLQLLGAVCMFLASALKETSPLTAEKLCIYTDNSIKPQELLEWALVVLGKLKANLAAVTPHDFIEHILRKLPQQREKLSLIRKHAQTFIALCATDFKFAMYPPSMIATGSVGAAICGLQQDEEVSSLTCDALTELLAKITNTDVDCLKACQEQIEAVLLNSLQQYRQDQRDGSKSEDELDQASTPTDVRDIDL
| Variant | normalised enrichment score |
| --- | --- |
| K4T | 0.78 |
| E10Q | 1.52 |
| L7S | 0.0889 |
| D12S | 1.73 |
| T11Q | 2.07 |
| R5N | 0.319 |
| D8K | 1.03 |
| L7I | 1.83 |
| F9C | 0.138 |
| R6N | 0.231 |
| T11L | 1.77 |
| R6F | 0.819 |
| R6W | 0.275 |
| L7G | -0.299 |
| P2D | 0.943 |
| T11R | 1.8 |
| F9N | 0.165 |
| P2K | 1.04 |
| R6K | 2.2 |
| L7H | 0.108 |
| R5F | 0.455 |
| D12W | 1.86 |
| L7C | 0.587 |
| E10F | 0.826 |
| F9S | 0.381 |
